Measured values from different studies.
A part holds a random share of what one study measured.

Series 1 — method: aptamer microarray, sandwich; form: DNA with 2'F-ANA; matrix: in vitro; tested at: 200 nM; together with: Cy3 exosite-II aptamer, 400 nM; direction: higher = stronger binding; quantity: mean fluorescence intensity; oligonucleotide: GGTTGGTGTGGTTGG
Target: Prothrombin, mature alpha-thrombin (F2, Homo sapiens, UniProt P00734)
Setting: whole 15-mer aptamer, many near background
Modification = 2'F-ANA at 6 8 10 13 14; value = 100 a.u.
Modification = 2'F-ANA at 1 2 4 7 9 10 11 12 13 15; value = 62.3 a.u.
Modification = 2'F-ANA at 1 2 3 5 11 14; value = 47.1 a.u.
Modification = 2'F-ANA at 1 2 3 5 10; value = 58.5 a.u.
Modification = 2'F-ANA at 4 5 6 11 12; value = 126 a.u.
Modification = 2'F-ANA at 4 5 6 7 10 12 14; value = 51.6 a.u.
Modification = 2'F-ANA at 1 4 5 6 7 9 10 11 12 14; value = 48.3 a.u.

Series 2 — method: protein-binding microarray; form: double-stranded DNA, one strand shown; matrix: in vitro; tested at: 250 nM; setting: 60-bp whole probe; together with: salmon DNA 0.4 mg/ml; relative to: random background probes; direction: higher = stronger binding; quantity: log fluorescence; shared flanks, not repeated: GCCTAGCAC … GTCTTGATTCGCTTGACGCTGCTG
Target: Interferon regulatory factor 5, full length, phosphomimetic (IRF5, Homo sapiens, UniProt Q13568-2, residues 1-514, K96S/S451D/S453D/S456D/S462D)
Oligonucleotide = TTAGGTTTCGGTTCCTGTTAGTGCTAG; value = 10.3 z-score
Oligonucleotide = TGTTATTAAATTTTCACGGTGTGCTAG; value = 0.75 z-score
Oligonucleotide = TCAGGTTTCCTTTTCCTTTAGTGCTAG; value = 1.6 z-score
Oligonucleotide = ATCTTTTTCCCTATTATATAGTGCTAG; value = 2 z-score
Oligonucleotide = GTAGAACTGGGGTATCGATTAGTGCTA; value = 2.2 z-score
Oligonucleotide = GCTTTTATGGTATTTTTTTCGTGCTAG; value = 1.2 z-score
Oligonucleotide = TTGGTTCTCAGCTTGGGGCAGTGCTAG; value = -0.405 z-score

Series 3 — method: protein binding microarray; form: double-stranded DNA, one strand shown; matrix: in vitro; tested at: not given; relative to: not given; direction: higher = stronger binding; quantity: E-score
Target: Histone acetyltransferase KAT6A, both winged helices, GST fusion (KAT6A, Homo sapiens, UniProt Q92794, residues 1-181)
Setting: 8-mer, flanks averaged, mean of 2 arrays, mostly near background
Residues (chain): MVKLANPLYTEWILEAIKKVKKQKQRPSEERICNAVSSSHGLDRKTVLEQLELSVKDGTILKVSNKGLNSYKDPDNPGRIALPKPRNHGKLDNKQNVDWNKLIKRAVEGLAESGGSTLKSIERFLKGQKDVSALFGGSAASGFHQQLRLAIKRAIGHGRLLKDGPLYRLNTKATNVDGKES
Oligonucleotide = AATTTTTA; value = -0.0276
Oligonucleotide = ATAGAGCG; value = 0.157
Oligonucleotide = ACGTAATC; value = -0.00045
Oligonucleotide = ATACCGGG; value = 0.166
Oligonucleotide = AATTATAT; value = -0.0832

Further values, each from its own experiment
Substance = PhoQ, residues 284 288 289 292 302 303 NLMGRA; target = PhoP, residues 12 14 15 18 19 LQHIR (Escherichia coli, UniProt P23836); assay = Sort-seq, item: YFP reporter; test system = E. coli; conditions = PhoQ-PhoP variant library, together with: 10 µM Mg2+; how to read = relative to: high Mg2+ state, higher = stronger signaling; quantity = fold induction; value = 1.59

Repeated from above (series 2):
Oligonucleotide = TTAGGTTTCGGTTCCTGTTAGTGCTAG; value = 10.3 z-score
Oligonucleotide = TGTTATTAAATTTTCACGGTGTGCTAG; value = 0.75 z-score
Oligonucleotide = TCAGGTTTCCTTTTCCTTTAGTGCTAG; value = 1.6 z-score
